{"data": "Experimental data collected from several papers", "note": "Every numbered part comes from another study and shows a few of its results, in no order. Substitutions count along the parent as printed.", "UniProt Q9Y3S1, sequence (whole entry, looked up)": "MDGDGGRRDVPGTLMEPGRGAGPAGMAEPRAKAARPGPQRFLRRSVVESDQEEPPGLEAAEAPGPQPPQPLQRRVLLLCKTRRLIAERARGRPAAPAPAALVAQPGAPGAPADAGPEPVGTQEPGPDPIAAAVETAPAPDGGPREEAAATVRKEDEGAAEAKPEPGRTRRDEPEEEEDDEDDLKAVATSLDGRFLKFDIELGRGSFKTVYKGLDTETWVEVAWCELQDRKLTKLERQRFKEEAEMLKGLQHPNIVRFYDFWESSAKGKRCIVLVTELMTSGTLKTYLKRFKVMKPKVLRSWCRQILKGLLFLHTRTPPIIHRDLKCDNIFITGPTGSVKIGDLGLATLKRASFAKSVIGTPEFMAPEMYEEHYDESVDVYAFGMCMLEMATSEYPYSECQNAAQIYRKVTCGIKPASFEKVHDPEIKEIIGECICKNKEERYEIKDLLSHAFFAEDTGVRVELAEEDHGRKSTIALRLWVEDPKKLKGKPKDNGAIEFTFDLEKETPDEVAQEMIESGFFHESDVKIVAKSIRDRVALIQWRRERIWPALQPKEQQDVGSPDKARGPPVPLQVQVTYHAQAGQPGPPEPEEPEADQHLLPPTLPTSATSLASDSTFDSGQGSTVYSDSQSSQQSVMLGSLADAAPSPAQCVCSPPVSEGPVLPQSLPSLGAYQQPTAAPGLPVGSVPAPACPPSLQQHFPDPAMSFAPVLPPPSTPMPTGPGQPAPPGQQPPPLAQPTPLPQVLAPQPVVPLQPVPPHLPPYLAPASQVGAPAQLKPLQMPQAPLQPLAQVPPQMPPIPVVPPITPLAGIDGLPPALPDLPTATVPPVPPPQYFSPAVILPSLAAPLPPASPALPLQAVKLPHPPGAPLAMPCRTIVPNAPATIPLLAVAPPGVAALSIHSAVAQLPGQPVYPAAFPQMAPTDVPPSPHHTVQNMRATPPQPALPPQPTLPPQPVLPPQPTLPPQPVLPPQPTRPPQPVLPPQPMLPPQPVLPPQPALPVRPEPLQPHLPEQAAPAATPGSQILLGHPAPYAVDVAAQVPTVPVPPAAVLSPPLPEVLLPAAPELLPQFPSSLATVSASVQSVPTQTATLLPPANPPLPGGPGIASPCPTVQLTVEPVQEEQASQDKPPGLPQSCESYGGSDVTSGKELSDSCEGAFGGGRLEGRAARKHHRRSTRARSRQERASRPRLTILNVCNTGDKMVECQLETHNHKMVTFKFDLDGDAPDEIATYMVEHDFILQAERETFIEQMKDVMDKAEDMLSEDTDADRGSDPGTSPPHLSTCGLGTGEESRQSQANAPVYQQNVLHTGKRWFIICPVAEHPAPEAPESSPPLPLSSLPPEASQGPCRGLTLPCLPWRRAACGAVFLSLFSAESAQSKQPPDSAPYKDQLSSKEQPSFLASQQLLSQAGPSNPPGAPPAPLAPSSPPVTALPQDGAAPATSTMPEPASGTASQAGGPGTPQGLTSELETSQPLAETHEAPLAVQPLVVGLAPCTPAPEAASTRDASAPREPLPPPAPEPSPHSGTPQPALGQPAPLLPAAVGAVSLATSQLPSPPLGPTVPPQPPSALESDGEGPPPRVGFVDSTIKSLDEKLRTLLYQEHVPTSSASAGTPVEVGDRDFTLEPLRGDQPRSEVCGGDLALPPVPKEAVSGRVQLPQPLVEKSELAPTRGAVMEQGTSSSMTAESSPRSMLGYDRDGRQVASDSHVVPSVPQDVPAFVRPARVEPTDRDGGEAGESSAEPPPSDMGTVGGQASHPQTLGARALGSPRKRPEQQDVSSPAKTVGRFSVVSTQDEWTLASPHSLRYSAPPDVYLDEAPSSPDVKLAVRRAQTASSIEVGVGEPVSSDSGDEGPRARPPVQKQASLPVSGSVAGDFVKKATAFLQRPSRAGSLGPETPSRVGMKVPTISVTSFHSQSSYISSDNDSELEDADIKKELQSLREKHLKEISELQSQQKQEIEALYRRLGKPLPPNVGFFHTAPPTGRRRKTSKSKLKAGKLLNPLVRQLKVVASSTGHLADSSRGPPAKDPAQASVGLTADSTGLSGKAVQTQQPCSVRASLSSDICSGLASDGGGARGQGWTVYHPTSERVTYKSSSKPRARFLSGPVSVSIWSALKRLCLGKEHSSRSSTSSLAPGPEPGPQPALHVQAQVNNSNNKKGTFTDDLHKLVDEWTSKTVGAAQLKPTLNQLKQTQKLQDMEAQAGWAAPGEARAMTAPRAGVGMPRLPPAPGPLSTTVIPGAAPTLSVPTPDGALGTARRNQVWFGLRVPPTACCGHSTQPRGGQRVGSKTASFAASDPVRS", "UniProt O00141, sequence (whole entry, looked up)": "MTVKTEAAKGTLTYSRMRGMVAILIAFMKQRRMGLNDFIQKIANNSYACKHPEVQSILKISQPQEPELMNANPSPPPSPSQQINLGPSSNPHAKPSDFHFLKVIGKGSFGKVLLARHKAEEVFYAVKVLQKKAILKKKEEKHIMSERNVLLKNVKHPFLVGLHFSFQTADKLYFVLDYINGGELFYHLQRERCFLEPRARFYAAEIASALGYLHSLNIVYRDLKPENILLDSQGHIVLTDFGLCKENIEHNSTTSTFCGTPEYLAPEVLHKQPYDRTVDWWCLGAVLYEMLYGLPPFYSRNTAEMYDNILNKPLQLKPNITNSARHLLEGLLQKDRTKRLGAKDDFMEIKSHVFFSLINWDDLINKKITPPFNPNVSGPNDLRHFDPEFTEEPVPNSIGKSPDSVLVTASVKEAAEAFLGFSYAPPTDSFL", "UniProt Q8IW41, sequence (whole entry, looked up)": "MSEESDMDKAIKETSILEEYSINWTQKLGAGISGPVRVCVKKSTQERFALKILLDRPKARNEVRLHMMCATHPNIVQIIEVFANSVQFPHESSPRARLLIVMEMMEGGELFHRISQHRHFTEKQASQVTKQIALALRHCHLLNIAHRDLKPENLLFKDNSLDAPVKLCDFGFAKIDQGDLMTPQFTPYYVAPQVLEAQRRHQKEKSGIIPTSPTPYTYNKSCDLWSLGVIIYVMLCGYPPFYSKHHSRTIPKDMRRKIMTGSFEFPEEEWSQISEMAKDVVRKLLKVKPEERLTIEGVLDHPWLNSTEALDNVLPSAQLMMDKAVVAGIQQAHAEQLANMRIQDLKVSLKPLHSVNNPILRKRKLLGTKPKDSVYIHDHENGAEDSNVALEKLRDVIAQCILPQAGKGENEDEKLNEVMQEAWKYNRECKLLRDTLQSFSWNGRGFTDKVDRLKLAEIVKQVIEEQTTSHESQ", "UniProt P49841, sequence (whole entry, looked up)": "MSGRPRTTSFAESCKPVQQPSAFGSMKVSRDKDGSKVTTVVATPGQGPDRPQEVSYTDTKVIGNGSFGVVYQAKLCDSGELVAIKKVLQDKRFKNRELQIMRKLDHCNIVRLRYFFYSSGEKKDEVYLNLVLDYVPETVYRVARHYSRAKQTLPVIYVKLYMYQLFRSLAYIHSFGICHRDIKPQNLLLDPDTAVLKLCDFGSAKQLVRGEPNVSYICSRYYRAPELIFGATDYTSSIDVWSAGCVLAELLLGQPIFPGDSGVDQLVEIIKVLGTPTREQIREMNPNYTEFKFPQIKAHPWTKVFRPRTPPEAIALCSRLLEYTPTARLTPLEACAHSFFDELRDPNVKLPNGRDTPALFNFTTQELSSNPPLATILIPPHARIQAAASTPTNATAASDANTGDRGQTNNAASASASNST", "UniProt O14936, sequence (whole entry, looked up)": "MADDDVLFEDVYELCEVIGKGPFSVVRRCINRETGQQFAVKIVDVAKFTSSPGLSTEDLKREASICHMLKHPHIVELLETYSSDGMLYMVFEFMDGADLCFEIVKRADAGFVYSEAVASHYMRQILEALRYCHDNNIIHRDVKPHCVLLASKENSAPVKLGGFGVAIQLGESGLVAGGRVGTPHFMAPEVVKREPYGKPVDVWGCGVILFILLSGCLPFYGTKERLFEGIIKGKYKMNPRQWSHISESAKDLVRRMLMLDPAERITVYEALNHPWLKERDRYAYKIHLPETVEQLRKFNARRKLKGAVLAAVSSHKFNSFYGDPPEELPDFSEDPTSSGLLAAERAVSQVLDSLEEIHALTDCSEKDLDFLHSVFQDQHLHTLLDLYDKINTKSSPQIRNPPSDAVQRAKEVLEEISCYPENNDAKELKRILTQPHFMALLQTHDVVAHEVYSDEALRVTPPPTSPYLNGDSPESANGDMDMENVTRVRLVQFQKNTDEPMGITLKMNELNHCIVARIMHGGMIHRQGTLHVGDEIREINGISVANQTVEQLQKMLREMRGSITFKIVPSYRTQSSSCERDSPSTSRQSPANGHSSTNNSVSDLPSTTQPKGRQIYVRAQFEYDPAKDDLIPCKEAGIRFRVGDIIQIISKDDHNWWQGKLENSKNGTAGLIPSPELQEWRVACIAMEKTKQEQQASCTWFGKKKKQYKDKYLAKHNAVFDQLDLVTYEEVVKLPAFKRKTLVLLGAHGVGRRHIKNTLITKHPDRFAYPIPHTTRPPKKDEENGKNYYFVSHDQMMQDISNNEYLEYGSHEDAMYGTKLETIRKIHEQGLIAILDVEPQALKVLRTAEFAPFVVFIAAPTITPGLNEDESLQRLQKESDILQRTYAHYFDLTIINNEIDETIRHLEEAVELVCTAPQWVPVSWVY", "UniProt O00238, sequence (whole entry, looked up)": "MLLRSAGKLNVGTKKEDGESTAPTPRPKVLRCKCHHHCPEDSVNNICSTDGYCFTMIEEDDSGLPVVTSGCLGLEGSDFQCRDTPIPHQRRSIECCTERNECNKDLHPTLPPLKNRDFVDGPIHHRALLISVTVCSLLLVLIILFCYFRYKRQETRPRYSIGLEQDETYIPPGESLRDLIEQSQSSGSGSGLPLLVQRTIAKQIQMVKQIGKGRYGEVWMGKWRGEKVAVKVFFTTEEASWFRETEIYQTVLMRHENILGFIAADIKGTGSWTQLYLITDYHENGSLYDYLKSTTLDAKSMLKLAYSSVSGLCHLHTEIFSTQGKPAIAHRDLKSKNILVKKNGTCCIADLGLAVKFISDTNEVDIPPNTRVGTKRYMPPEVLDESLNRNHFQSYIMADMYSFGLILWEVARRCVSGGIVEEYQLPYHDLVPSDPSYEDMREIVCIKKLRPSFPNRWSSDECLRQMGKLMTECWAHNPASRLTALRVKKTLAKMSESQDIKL"}
{"data": "Set 1", "target": "CCNF, cyclin fold, Cln2 fusion (human)", "technique": "yeast growth competition, sequencing", "sample": "yeast", "setting": "strong parent motif", "reference": "not given", "direction": "higher = stronger binding", "starting sequence": "viral docking peptide; PTARRRLLHDLDT"}
{"Variant": "L11A", "normalised enrichment score": 2.32}
{"Variant": "R5A", "normalised enrichment score": 0.561}
{"Variant": "R5A R6A L7A L8A", "normalised enrichment score": -0.355}
{"Variant": "R5K L8F", "normalised enrichment score": 6.01}
{"Variant": "R6A", "normalised enrichment score": 3.5}
{"data": "Set 2", "Structure (SMILES)": "Cn1cncc1[C@@](O)(COc1ccc(C#N)cc1-c1ccc(OC(F)(F)F)cc1)c1ccc(C#N)cc1", "observed": "cell-free assay", "technique": "competition with immobilised ligand", "tested at": "1 µM"}
{"target": "CRK2 (Plasmodium falciparum, UniProt P61075)", "remaining binding": "69%"}
{"target": "WNK2 (Homo sapiens, UniProt Q9Y3S1)", "remaining binding": "84%"}
{"target": "MAPKAPK5 (Homo sapiens, UniProt Q8IW41)", "remaining binding": "100%"}
{"target": "FLT3 (Homo sapiens, UniProt P36888, K663Q)", "remaining binding": "64%"}
{"target": "CASK (Homo sapiens, UniProt O14936)", "remaining binding": "92%"}
{"target": "CAMK4 (Homo sapiens, UniProt Q16566)", "remaining binding": "100%"}
{"target": "EPHB4 (Homo sapiens, UniProt P54760)", "remaining binding": "100%"}
{"target": "GSK3B (Homo sapiens, UniProt P49841)", "remaining binding": "100%"}
{"target": "Ribosomal protein S6 kinase alpha-4, N-terminal kinase domain (RPS6KA4, Homo sapiens, UniProt O75676)", "remaining binding": "93%"}
{"target": "Tyrosine-protein kinase ABL1, phosphorylated (ABL1, Homo sapiens, UniProt P00519, T315I)", "remaining binding": "6.1%"}
{"target": "BMPR1B (Homo sapiens, UniProt O00238)", "remaining binding": "96%"}
{"data": "Set 3", "target": "HLA class I histocompatibility antigen, C alpha chain, allele C*04:01 (Homo sapiens, UniProt P10321)", "observed": "peptide-MHC binding", "form": "peptide", "tested at": "concentration not given"}
{"Molecule": "YYTEDQGQF", "binding": "inactive"}
{"Molecule": "TSASFTDLY", "binding": "inactive"}
{"Molecule": "HEVNGTWMI", "binding": "inactive"}
{"Molecule": "YRYCHQLAL", "binding": "inactive"}
{"Molecule": "AEHDPWWAV", "binding": "inactive"}
{"Molecule": "FRYEFTAPF", "binding": "inactive"}
{"Molecule": "YYLIKYLHV", "binding": "inactive"}
{"Molecule": "FLDKGTYTL", "binding": "inactive"}
{"data": "Other studies, line by line"}
{"Structure (SMILES)": "O=C1NC(=O)c2c1c1c3ccccc3n3c1c1c2c2ccccc2n1[C@H]1CC[C@@H]3O1", "target": "Serine/threonine-protein kinase Sgk1 (SGK1, Homo sapiens, UniProt O00141)", "observed": "enzyme activity", "action": "inhibitor", "tested at": "0.5 µM", "reference": "control", "endpoint": "remaining activity", "value": "23.8%"}
{"note": "Excerpt of the above (set 1):"}
{"Variant": "R5A", "normalised enrichment score": 0.561}
